Measurements collected from several papers.
A part holds a random share of what one study measured.

Sample 1
Target: TAR DNA-binding protein 43, full length, His tag (TARDBP, Homo sapiens, UniProt Q13148, residues 1-414)
Method: RNA Bind-n-Seq
Molecule type: RNA
Medium: in vitro
Tested at: 20 nM
Setting: 6-mer, flanks averaged, single round
With: 150 mM KCl
Relative to: input library
Direction: higher = stronger binding
Measurement: 6-mer enrichment (R)
GAUAUC: 0.6
CGGCCA: 0.902
GUGUUU: 1.01
UUUGUU: 0.737
UGCAAU: 0.656
CCAUUU: 0.646
CAACUU: 0.589
UUGUCG: 0.751
UACUAG: 0.653
UCGUAU: 0.597

Sample 2
Target: Histone acetyltransferase KAT6A, winged helix 2, GST fusion (KAT6A, Homo sapiens, UniProt Q92794, residues 85-181)
Method: protein binding microarray
Molecule type: double-stranded DNA, one strand shown
Medium: in vitro
Tested at: not given
Setting: 8-mer, flanks averaged, mean of 2 arrays, mostly near background
Relative to: not given
Direction: higher = stronger binding
Measurement: E-score
Construct (chain): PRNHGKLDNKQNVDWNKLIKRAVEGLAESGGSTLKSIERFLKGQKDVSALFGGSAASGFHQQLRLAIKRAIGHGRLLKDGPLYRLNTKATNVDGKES
CAAAGAAA: 0.0876
ATCCACTC: 0.0501
ATCCTAAT: 0.03
GAGGGCAC: -0.107
ACTACTAC: -0.166
CCACCCCA: -0.0417
GCACACGC: 0.104
AGGCAGTG: 0.0636
CTTCCCTA: -0.175
TGTTTCAA: 0.127
ATAGGCCA: -0.184

Sample 3
Target: Interferon regulatory factor 5, full length, phosphomimetic (IRF5, Homo sapiens, UniProt Q13568-2, residues 1-514, S451D/S453D/S456D/S462D)
Method: protein-binding microarray
Molecule type: double-stranded DNA, one strand shown
Medium: in vitro
Tested at: 940 nM top
Setting: 60-bp whole probe
With: salmon DNA 0.4 mg/ml
Relative to: random background probes
Direction: higher = stronger binding
Measurement: fitted relative affinity
Shared flanks, not repeated: GCCTAGCAC … GTCTTGATTCGCTTGACGCTGCTG
GACGGACAGGGGTTTCGGGACGTGCTA: 1.98 z-score
TTAGGTATCGGTACCGGTTAGTGCTAG: 10.7 z-score
GACGGACTGGACTCTCGGGACGTGCTA: -0.00481 z-score
TTAGGTCTCTTTTTCCTTTAGTGCTAG: 0.956 z-score
TGTTGTCTGTGTTTCCTTGTGTGCTAG: 1.03 z-score
GACGAACAGAGTTTCGAGACGTGCTAG: 2.07 z-score
CTAGGTATCGGTCTCGGTTAGTGCTAG: 8.62 z-score

Further values, each from its own experiment
PhoQ, residues 284 288 289 292 302 303 SACGEM
fold induction (PhoP, residues 12 14 15 18 19 NMSSL (Escherichia coli, UniProt P23836); Sort-seq, item: YFP reporter; E. coli; PhoQ-PhoP variant library, with: 10 µM Mg2+; relative to: high Mg2+ state, higher = stronger signaling): 3.37

For quick reference, copied from above (sample 2):
GCACACGC: 0.104
AGGCAGTG: 0.0636
CTTCCCTA: -0.175
TGTTTCAA: 0.127
